Published values gathered from unrelated publications.
Parts stem from different laboratories: compare values within a part only. “And” joins repeats or separate records; there may be more than shown.
UniProt P57059, sequence (whole entry, looked up): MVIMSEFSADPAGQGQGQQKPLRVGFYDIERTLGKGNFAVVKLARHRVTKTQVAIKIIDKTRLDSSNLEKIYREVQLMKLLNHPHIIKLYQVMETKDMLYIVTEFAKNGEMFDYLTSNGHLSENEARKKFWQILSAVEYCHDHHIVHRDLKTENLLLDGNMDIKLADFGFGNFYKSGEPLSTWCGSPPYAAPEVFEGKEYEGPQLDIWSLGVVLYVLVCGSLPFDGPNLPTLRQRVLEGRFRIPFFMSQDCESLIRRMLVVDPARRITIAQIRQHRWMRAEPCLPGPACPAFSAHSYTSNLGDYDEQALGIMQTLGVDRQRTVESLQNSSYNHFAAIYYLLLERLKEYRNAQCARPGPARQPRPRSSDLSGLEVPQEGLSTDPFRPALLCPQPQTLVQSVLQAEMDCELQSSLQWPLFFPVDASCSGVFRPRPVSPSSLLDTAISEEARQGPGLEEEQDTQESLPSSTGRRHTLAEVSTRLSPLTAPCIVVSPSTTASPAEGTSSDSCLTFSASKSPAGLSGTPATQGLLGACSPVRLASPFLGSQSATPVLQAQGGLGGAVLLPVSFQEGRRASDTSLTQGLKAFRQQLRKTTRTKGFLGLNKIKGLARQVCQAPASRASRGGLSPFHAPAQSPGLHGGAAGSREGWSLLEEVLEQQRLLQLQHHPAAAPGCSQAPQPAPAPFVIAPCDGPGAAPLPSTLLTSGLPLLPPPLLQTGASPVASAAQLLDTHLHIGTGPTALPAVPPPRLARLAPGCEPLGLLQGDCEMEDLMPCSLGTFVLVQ
UniProt P54760, sequence (whole entry, looked up): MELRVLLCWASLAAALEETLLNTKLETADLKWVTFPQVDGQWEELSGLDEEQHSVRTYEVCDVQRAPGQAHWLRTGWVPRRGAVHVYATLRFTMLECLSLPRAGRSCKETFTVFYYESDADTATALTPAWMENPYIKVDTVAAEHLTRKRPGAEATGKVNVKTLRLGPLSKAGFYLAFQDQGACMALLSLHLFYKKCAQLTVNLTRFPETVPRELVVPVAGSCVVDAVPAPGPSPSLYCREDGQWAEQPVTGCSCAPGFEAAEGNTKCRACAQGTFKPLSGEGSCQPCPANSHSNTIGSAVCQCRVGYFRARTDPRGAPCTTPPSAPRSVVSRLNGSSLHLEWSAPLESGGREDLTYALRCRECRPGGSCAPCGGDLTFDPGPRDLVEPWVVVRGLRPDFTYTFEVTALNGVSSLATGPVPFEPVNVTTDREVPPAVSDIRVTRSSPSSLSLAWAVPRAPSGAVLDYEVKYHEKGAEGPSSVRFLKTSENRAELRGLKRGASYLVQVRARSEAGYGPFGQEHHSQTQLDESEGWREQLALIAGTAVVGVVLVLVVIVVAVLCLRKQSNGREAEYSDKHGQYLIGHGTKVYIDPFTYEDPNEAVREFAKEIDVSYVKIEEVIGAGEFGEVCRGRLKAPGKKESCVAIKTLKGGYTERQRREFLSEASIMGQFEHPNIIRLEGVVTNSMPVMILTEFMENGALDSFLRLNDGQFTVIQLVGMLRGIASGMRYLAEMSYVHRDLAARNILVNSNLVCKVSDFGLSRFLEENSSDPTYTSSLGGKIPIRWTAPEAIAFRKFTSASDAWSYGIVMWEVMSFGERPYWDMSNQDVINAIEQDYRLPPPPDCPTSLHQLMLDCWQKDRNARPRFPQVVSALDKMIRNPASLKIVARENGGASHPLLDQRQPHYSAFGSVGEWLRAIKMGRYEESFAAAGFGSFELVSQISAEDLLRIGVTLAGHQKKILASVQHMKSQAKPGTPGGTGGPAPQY
UniProt Q00532, sequence (whole entry, looked up): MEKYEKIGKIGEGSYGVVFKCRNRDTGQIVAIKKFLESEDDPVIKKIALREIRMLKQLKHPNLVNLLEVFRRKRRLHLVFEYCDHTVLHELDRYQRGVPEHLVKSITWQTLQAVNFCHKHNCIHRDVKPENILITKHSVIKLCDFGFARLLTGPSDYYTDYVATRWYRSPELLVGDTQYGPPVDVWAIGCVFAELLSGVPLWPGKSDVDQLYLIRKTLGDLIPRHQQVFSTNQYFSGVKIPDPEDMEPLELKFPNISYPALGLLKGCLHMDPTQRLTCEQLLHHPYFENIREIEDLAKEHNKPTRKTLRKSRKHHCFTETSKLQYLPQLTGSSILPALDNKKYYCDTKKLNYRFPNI
UniProt Q96GD4, sequence (whole entry, looked up): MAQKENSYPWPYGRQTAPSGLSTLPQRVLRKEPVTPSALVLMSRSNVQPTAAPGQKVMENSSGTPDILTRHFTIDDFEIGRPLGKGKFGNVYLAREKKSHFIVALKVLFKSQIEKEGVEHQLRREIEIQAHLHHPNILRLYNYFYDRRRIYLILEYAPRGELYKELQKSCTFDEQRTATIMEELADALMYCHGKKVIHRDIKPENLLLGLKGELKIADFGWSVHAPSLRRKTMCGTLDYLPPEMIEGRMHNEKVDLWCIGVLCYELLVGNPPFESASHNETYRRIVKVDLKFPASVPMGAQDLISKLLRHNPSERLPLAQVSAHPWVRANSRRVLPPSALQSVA
UniProt Q9UQM7, sequence (whole entry, looked up): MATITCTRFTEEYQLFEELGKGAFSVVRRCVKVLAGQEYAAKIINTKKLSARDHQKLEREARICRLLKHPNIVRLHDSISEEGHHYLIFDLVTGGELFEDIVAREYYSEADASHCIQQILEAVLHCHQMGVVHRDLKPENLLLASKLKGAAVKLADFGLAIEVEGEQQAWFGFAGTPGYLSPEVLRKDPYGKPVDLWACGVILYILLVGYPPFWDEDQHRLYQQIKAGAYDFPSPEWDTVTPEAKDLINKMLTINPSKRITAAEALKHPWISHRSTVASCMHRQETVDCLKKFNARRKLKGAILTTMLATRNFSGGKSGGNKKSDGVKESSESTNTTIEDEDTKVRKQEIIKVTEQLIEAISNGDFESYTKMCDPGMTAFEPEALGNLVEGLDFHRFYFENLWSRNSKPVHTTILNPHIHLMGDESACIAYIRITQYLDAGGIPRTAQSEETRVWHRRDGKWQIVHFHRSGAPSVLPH
UniProt Q9H2G2, sequence (whole entry, looked up): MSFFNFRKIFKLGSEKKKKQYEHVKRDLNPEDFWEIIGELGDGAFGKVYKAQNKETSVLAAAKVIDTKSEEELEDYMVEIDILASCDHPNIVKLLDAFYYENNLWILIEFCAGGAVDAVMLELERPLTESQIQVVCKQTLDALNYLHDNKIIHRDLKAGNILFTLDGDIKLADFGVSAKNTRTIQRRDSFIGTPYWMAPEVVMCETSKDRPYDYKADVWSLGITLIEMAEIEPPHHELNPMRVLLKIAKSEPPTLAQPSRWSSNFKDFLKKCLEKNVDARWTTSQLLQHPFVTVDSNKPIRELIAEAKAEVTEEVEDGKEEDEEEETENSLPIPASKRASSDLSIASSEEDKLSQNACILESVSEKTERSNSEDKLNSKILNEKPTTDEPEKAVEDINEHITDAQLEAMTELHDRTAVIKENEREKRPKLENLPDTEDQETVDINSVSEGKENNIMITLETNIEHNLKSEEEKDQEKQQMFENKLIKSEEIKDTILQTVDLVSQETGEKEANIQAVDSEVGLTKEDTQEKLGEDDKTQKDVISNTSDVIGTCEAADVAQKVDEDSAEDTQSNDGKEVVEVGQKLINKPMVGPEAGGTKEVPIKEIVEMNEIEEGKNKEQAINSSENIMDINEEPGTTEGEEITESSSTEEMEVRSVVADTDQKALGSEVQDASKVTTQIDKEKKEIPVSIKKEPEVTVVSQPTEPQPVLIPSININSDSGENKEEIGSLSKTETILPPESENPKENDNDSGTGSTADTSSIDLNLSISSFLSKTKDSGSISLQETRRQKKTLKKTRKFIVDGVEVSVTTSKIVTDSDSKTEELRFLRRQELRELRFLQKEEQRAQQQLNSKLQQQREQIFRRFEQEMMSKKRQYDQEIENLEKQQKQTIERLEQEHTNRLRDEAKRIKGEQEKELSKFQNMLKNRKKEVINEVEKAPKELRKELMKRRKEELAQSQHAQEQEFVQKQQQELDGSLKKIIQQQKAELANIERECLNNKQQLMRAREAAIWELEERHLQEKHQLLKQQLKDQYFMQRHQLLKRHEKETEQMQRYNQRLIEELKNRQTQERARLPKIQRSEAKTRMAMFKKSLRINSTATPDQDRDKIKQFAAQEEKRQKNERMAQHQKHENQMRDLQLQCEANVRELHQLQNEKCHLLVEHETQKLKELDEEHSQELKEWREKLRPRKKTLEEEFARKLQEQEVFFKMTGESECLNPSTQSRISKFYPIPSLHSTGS
UniProt P16591, sequence (whole entry, looked up): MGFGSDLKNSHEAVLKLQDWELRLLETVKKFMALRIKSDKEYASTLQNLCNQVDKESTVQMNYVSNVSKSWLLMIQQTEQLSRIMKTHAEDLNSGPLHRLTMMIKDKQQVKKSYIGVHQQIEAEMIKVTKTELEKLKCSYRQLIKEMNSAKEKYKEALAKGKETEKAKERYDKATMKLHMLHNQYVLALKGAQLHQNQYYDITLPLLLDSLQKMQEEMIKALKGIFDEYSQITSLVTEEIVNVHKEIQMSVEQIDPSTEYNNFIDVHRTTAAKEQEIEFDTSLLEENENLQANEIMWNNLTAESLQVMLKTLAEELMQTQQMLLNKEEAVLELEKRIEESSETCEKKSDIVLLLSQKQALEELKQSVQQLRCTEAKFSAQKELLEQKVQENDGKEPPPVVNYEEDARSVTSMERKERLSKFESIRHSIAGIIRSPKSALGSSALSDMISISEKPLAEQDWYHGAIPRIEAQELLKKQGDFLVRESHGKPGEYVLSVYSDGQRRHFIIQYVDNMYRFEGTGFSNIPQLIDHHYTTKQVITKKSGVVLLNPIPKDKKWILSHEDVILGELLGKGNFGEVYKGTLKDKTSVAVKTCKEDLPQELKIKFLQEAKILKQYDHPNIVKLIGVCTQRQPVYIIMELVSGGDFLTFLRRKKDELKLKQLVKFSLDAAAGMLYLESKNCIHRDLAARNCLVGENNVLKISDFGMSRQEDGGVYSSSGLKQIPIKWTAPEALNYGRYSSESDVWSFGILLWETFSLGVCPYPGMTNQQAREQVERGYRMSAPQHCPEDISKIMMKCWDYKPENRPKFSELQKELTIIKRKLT

Set 1
SMILES: Cc1ncc(-c2cc3c(C#N)c(-c4c(C)ccc(O)c4C)cnc3[nH]2)cn1
Species: Sprague-Dawley rat
Dose: dose not given
Measurement: plasma concentration
intravenous, 24 h: not detected
intravenous, 8 h: not detected
oral, 24 h: not detected

Set 2
SMILES: COCC1CC2C(CCC3C(O)CCC32)c2ccc(O)cc21 (centres unmarked)
Measurement: log2 fold change
SK-OV-3; DNA microarray, measured: TMEM108; 25 µM; reference: untreated cells: 0.147
SK-OV-3; DNA microarray, measured: CCL8; 25 µM; reference: untreated control: 0
PANC-1; DNA microarray, measured: MCM7; 25 µM; reference: untreated cells: 0.146
SK-OV-3; microarray, measured: SPC25; 100 µM; reference: untreated: -0.375
SK-OV-3; DNA microarray, measured: UBD; 25 µM; reference: untreated: -0.364
A549; DNA microarray, measured: MCM7; 100 µM; reference: untreated cells: -0.449
A549; microarray, measured: GZMK; 25 µM; reference: untreated: 0
SK-OV-3; DNA microarray, measured: CCL8; 100 µM; reference: untreated control: 0

Set 3
SMILES: COc1cc(-c2nc3ccc(C(=O)NCCCN(C)C)cc3n2C2CCC2)cc(OC)c1OC
Technique: NanoBRET
Tested at: 1 µM
Measurement: target occupancy
Cyclin-dependent kinase-like 1 (CDKL1, Homo sapiens, UniProt Q00532): -2.46%
Ephrin type-B receptor 4 (EPHB4, Homo sapiens, UniProt P54760): -3.12%
Tyrosine-protein kinase Fer (FER, Homo sapiens, UniProt P16591): 1.12%
Protein-tyrosine kinase 6 (PTK6, Homo sapiens, UniProt Q13882): 0.97%
Calcium/calmodulin-dependent protein kinase type II subunit alpha (CAMK2A, Homo sapiens, UniProt Q9UQM7): 1.61%
Aurora kinase B (AURKB, Homo sapiens, UniProt Q96GD4): 0.58%
Serine/threonine-protein kinase SIK1 (SIK1, Homo sapiens, UniProt P57059): -7.42%
STE20-like serine/threonine-protein kinase (SLK, Homo sapiens, UniProt Q9H2G2): -5.37%

Further values, each from its own experiment
Cn1cc(-c2cccc(CN3CCC4(CC3)COc3c4ccc4c3CN([C@H]3CCC(=O)NC3=O)C4=O)c2)cn1 — Vss (rat; intravenous, 1 mg/kg): 2470 mL/kg and 3170 mL/kg and 3240 mL/kg

Some of these lines once more (set 3):
Ephrin type-B receptor 4 (EPHB4, Homo sapiens, UniProt P54760): -3.12%
Tyrosine-protein kinase Fer (FER, Homo sapiens, UniProt P16591): 1.12%
